Measurements gathered from unrelated publications.
Lines come from different studies, so protocols differ. Numbers after ± are the reported error.
Papain: Papain (Carica papaya, UniProt P00784)

The chains behind the UniProt entries cited, without tags or fusion partners. Residues count along the entry.
UniProt Q8I719, whole entry: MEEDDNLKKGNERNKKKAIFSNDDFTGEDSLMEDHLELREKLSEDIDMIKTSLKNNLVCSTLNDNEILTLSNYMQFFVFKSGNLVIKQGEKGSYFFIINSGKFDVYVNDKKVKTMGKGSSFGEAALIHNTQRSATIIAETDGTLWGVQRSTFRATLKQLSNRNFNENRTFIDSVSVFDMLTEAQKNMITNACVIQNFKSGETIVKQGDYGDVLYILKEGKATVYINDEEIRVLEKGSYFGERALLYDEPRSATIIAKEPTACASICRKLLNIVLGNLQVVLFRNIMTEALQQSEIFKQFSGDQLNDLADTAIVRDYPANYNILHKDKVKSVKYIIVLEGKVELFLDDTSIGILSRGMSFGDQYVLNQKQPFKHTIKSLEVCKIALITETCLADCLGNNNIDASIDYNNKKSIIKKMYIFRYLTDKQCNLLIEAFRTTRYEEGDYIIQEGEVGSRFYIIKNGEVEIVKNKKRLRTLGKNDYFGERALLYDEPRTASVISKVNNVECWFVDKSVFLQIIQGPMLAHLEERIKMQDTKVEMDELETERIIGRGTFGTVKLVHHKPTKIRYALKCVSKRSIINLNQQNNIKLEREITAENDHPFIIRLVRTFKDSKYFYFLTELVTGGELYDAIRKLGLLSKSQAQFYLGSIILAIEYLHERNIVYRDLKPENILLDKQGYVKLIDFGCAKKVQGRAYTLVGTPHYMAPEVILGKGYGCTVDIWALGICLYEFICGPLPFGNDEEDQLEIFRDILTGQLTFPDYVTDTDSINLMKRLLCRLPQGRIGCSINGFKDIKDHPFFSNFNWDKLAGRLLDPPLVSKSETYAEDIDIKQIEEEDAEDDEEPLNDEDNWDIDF
UniProt P28472, whole entry, looked up: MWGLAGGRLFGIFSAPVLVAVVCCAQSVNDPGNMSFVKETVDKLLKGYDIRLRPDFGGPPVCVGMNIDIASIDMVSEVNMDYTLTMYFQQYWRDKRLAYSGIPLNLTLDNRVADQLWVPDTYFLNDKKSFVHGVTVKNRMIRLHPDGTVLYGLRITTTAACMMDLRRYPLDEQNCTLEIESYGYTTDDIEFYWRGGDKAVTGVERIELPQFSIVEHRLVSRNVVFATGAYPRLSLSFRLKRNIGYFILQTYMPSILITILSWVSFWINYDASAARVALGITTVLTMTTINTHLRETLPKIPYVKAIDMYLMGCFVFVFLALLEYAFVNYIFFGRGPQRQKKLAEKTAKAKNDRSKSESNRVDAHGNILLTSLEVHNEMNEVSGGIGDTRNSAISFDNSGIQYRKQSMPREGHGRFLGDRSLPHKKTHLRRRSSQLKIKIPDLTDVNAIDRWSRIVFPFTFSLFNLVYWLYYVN
UniProt P00533, 25-1210 limits assumed: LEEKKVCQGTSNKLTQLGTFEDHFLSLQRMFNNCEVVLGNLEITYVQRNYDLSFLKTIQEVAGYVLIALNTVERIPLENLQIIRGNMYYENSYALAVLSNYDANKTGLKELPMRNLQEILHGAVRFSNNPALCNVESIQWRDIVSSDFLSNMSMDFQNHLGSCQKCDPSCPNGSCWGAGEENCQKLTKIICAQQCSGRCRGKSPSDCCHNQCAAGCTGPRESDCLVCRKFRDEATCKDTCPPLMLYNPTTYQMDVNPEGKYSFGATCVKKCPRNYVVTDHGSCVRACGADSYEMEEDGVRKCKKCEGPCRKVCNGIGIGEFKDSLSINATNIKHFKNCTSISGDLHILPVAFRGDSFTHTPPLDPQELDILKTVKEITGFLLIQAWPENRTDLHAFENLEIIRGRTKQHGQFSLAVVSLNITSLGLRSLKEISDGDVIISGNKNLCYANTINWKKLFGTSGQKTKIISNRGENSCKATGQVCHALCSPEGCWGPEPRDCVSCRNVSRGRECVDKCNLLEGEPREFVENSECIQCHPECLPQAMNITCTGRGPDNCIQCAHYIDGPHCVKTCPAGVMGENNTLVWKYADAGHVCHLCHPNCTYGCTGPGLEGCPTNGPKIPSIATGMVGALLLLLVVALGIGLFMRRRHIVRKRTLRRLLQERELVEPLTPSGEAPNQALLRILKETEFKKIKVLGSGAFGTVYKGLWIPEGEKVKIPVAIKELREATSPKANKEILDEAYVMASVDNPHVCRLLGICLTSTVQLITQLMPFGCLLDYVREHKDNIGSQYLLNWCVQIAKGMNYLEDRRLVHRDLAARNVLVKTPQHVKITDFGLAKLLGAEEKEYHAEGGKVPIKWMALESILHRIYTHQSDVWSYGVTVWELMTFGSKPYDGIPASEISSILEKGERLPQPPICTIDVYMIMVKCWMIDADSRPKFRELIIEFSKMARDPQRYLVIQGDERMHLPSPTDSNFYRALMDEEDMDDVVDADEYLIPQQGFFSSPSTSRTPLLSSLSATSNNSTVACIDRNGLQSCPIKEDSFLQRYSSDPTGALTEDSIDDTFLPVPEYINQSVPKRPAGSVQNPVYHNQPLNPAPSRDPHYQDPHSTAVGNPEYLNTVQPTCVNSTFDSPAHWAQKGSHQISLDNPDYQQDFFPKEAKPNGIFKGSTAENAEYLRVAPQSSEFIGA
UniProt P06935, whole entry, looked up: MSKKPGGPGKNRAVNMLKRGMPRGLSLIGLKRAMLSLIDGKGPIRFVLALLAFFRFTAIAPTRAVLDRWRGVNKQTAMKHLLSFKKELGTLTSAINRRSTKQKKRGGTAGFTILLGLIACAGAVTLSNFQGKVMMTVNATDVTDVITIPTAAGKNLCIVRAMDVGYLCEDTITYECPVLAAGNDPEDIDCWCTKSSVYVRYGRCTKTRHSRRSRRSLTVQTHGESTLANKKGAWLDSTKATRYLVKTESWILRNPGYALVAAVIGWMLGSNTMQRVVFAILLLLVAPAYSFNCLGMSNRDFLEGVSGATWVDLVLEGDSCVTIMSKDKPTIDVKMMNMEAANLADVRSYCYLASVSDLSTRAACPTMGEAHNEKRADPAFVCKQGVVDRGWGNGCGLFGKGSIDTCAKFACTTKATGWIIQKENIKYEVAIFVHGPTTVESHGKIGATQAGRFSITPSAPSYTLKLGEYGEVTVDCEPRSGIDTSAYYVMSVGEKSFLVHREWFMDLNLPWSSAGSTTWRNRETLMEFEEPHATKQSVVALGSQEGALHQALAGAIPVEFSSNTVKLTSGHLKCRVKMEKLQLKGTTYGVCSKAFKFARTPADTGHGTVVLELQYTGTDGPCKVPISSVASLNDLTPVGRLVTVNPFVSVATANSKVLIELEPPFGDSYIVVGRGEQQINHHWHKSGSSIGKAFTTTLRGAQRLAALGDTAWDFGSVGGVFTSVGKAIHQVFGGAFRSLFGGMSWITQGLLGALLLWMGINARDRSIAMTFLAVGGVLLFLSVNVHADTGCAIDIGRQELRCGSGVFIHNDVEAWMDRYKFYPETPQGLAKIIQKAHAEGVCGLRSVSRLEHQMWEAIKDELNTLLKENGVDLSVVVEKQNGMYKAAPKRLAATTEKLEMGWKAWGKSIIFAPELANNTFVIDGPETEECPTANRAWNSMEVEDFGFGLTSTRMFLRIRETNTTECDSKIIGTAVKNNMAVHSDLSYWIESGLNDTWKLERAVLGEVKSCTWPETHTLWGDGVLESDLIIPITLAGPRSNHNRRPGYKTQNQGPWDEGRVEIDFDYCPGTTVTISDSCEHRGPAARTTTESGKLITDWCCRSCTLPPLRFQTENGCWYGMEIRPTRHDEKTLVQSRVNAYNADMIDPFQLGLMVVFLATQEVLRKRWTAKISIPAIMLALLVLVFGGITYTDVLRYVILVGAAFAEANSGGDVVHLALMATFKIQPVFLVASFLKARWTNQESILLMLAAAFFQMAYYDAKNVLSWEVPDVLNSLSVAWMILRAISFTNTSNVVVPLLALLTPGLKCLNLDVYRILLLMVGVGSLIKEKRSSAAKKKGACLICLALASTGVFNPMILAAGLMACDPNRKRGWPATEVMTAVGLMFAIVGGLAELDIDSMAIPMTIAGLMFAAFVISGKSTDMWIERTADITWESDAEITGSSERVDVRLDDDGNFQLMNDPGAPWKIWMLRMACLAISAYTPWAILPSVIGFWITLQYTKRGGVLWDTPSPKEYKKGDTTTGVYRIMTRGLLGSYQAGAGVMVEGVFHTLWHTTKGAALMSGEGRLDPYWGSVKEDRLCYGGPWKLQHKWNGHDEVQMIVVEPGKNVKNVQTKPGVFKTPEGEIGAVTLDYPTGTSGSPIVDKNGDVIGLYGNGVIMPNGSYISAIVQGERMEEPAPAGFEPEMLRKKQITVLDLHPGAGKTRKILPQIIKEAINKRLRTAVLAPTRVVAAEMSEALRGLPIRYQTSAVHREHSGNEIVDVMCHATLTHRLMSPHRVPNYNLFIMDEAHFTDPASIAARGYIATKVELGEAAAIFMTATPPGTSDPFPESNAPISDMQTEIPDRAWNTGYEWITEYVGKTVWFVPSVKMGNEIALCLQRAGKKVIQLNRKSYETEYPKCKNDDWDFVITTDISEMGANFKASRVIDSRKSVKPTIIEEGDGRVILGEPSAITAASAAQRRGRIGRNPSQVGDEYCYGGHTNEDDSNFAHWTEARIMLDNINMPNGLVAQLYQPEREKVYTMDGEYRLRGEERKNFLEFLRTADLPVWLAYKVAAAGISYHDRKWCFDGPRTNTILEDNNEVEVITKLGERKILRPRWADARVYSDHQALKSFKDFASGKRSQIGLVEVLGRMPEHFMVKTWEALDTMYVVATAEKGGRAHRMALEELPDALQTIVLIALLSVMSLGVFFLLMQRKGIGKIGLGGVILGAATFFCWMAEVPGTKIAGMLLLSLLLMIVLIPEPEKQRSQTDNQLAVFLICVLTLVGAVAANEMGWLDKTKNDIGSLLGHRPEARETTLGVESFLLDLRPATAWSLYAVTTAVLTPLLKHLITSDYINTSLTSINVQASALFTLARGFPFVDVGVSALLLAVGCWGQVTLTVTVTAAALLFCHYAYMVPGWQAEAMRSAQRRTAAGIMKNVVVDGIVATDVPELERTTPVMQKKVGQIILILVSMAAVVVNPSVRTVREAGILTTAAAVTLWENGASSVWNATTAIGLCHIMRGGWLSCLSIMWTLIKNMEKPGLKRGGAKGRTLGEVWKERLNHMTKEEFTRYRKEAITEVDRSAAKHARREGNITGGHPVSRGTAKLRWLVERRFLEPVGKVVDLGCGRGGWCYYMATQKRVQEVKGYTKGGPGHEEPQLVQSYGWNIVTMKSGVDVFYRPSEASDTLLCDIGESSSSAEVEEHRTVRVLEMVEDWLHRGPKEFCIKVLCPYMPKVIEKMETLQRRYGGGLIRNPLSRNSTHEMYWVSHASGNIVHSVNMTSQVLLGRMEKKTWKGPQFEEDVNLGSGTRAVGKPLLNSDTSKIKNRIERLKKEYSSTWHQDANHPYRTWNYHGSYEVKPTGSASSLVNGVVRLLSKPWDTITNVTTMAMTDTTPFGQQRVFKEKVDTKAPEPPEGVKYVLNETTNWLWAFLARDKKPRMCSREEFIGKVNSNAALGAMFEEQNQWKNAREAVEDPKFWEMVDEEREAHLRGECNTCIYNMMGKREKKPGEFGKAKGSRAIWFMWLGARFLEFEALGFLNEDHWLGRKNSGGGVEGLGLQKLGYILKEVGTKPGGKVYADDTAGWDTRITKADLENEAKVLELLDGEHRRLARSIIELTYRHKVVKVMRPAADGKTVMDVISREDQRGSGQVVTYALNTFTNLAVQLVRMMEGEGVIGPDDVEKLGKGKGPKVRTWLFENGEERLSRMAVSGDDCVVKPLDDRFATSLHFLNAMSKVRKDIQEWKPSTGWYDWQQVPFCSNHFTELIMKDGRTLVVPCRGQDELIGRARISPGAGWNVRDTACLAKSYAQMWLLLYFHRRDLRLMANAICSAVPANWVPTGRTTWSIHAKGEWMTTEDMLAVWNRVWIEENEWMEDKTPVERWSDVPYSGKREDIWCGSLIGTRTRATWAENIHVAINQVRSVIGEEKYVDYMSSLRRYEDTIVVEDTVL
UniProt P62593, 24-286 limits assumed: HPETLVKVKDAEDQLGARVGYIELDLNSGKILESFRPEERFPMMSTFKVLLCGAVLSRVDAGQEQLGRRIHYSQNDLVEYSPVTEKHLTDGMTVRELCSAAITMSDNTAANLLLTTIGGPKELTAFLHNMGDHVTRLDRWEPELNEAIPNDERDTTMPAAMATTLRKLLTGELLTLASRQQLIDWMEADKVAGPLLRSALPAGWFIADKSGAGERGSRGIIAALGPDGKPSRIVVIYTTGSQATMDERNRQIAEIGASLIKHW
UniProt Q5M848, whole entry: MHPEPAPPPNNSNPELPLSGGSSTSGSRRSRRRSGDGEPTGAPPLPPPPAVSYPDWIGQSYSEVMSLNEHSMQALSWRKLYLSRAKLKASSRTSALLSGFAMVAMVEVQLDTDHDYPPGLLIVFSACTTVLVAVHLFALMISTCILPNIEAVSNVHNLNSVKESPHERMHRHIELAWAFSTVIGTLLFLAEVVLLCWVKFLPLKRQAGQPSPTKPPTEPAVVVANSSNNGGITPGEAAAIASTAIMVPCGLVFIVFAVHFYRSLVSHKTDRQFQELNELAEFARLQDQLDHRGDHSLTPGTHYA

Structure (SMILES) | target or system | assay | test system | conditions | endpoint | value
CS(=O)(=O)Cc1onc(-c2cccc(Cl)c2)c1-c1ccnc(N[C@@H]2CCN(Cc3nccs3)C2)n1 | cGMP-dependent protein kinase (PKG, Plasmodium falciparum, UniProt Q8I719) | kinase activity, inhibitor, IMAP |  | 10 µM | inhibition | 86.5 ± 0.7%
C[C@H](CS)C(=O)N[C@H](Cc1c[nH]c2ccccc12)C(=O)O | Klebsiella pneumoniae |  | VIM-1 producing | 50 µM, added: meropenem | MIC of meropenem | 0.5 µg/mL
O=C1NC(=O)C2(Cc3ccccc32)N1 (racemic) | GABA-A receptor alpha-1/beta-3, with gamma-2 subunit (GABRA1/GABRB3, Homo sapiens, UniProt P14867+P28472) | etomidate-enhanced [3H]muscimol binding, inhibitor |  | 300 µM | inhibition | 65%
C=CC(=O)Nc1cc(-n2c(=O)ccc3cnc4ccc(-c5cn[nH]c5)cc4c32)ccc1C | U-937 | cell growth |  | 72 h | GI50 | 1400 nM
NC[C@@H](NC[C@@H]1CCCN1C[C@@H](CO)NC[C@@H](NCCC1CC2CCC1C2)c1ccccc1)c1ccccc1 (stereo partly shown) | Klebsiella pneumoniae | bacterial growth |  | 24 µM, fold shift of IC50, added: amikacin | potentiation of amikacin | 3.3 fold
O=C(CCl)Nc1ccc2c(Nc3ccccc3)ncnc2c1 | EGFR (Homo sapiens, UniProt P00533) | kinase activity, inhibitor, kinase panel |  | 300 nM | inhibition | inhibited
NCCNCCSc1ccccc1 |  |  | n-octanol/phosphate buffer | 25 µg/mL, pH 7.4 | partition coefficient | 0.24 ± 0.02
[11CH3]Nc1ccc(C(=O)C2CCN(C3Cc4ccccc4CC3O)CC2)cc1 (single isomer, unassigned) |  |  | Sprague-Dawley rat, cerebellum | 30 min | uptake | 0.157 %ID/g
N=C(N)NCCC[C@H](NC(=O)c1ccccc1)C(=O)N[C@@H](CCCCN)C(=O)N[C@@H](C(N)=O)c1ccc(OCc2ccccc2)cc1 | Genome polyprotein, NS2B-NS3 protease (West Nile virus, UniProt P06935) | enzyme activity, inhibitor, FRET |  | 50 µM, added: substrate 50 µM | inhibition | 91 ± 5%
CCNC(=O)C(=O)[C@H](Cc1ccccc1)NC(=O)[C@H]1CCC(=O)N1Cc1ccccc1 | Papain | enzyme activity, inhibitor |  | 1 µM | inhibition | 0%
CCCOC(=O)[C@@]12C[C@@H]1[C@@H](n1cnc3c(NC)nc(C#Cc4ccc(Cl)s4)nc31)[C@H](O)[C@@H]2O | SLC6A4 (Homo sapiens, UniProt P31645) | binding, radioligand binding | HEK293 | 10 µM, negative means enhanced binding, added: [3H]citalopram | inhibition | 26 ± 4%
O=C(Oc1nsnc1N1CCCCC1)N1CCOCC1 | Beta-lactamase TEM (bla, Escherichia coli, UniProt P62593) | inhibitor, nitrocefin hydrolysis |  | up to 300 µM | inhibition | no inhibition
O=C(NC1CC1)C(=O)[C@H](Cc1ccccc1)NC(=O)[C@H]1CCC(=O)N1Cc1ccccc1 | Papain | enzyme activity, inhibitor |  | 1 µM | inhibition | 2.9%
NC(Cc1cc(I)c(O)c(I)c1)C(=O)O (stereo not shown) | SLC22A11 (Homo sapiens, UniProt Q9NSA0) | 6-carboxyfluorescein uptake, inhibitor | CHO expressing human OAT4 | 25 µM, 5 min, added: 25 µM 6-carboxyfluorescein | inhibition | 79.5%
Cc1cnccc1C(=O)Nc1nn(Cc2ccc(Cl)cc2Cl)c2ccccc12 | Calcium release-activated calcium channel protein 1, with STIM1 (Rattus norvegicus, UniProt Q5M848) | Ca2+ influx, inhibitor | RBL-2H3 | 30 µM, added: thapsigargin | inhibition | ~50%
COc1ccc(CN[C@@H]2CO[C@H](C(c3ccccc3)c3ccccc3)C[C@H]2O)cc1 | ADRA1D (Homo sapiens, UniProt P25100) | radioligand binding |  | 10 µM, added: [3H]prazosin | inhibition | 30%

For quick reference, copied from above:
Structure (SMILES) | target or system | assay | test system | conditions | endpoint | value
CS(=O)(=O)Cc1onc(-c2cccc(Cl)c2)c1-c1ccnc(N[C@@H]2CCN(Cc3nccs3)C2)n1 | cGMP-dependent protein kinase (PKG, Plasmodium falciparum, UniProt Q8I719) | kinase activity, inhibitor, IMAP |  | 10 µM | inhibition | 86.5 ± 0.7%
C[C@H](CS)C(=O)N[C@H](Cc1c[nH]c2ccccc12)C(=O)O | Klebsiella pneumoniae |  | VIM-1 producing | 50 µM, added: meropenem | MIC of meropenem | 0.5 µg/mL
